Published values from different studies.
Each numbered part is a random draw from the data of one study; scales do not carry over between parts. “And” joins repeats or separate records; there may be more than shown.

Study 1 — read-out: fresh weight; route: soil surface spray; dose: 150 g ai/ha; time: 21 days; notes: pre-emergence crop safety
Compound: CCCN1C(=O)C(O)(C(=O)O)Oc2cc(F)ccc21 (stereo not drawn)
organism	inhibition
Oryza sativa	30.8% and 29% and 28%
Zea mays	8.1% and 7.5% and 9.3%
Triticum aestivum	10% and 12.4% and 11%

Study 2
SMILES: Cn1cc(-c2cccc(CN3CCC4(CC3)COc3c4ccc4c3CN([C@H]3CCC(=O)NC3=O)C4=O)c2)cn1
matrix	time	notes	remaining compound
monkey plasma	15 min	mean	108%
human plasma	5 min	mean	108%
mouse plasma	0 min		100%
human plasma	60 min	mean	94.3%
monkey plasma	5 min	mean	111%
monkey plasma	60 min	mean	108%
monkey plasma	120 min	mean	100%
mouse plasma	5 min	mean	116%
mouse plasma	120 min	mean	108%
mouse plasma	60 min	mean	108%

Study 3 — route: subcutaneous; dose: 30 mg/kg
Compound: COc1cc(C(=O)OCCCN2CCCN(CCCOC(=O)c3cc(OC)c(OC)c(OCc4ccc([N+](=O)[O-])cc4)c3)CC2)cc(OC)c1OC
species	matrix	time	concentration
male CD-1 mouse	brain	12 h	16.9 ng/mL
mouse CD-1 male	trigeminal ganglion	24 h	3.83 ng/mL
CD-1 mice, male	brain	0.5 h	95.5 ng/mL
CD-1 mice, male	spinal cord	0.5 h	97.1 ng/mL
CD-1 mice, male	spinal cord	1.5 h	72.7 ng/mL

Study 4 — cell line: P493B lymphoma cells
Structure (SMILES): CC(C)OC(=O)[C@H](CCC(=O)C=[N+]=[N-])NC(=O)[C@H](Cc1c[nH]c2ccccc12)NC(=O)C12CCN(CC1)CC2
concentration	viability [%]
300 nM	104
100 nM	100
100 µM	91.9

Excerpt of the above (study 2):
matrix	time	notes	remaining compound
human plasma	60 min	mean	94.3%
monkey plasma	5 min	mean	111%
